Measurements from different studies.
UniProt O14920, sequence (whole entry, looked up): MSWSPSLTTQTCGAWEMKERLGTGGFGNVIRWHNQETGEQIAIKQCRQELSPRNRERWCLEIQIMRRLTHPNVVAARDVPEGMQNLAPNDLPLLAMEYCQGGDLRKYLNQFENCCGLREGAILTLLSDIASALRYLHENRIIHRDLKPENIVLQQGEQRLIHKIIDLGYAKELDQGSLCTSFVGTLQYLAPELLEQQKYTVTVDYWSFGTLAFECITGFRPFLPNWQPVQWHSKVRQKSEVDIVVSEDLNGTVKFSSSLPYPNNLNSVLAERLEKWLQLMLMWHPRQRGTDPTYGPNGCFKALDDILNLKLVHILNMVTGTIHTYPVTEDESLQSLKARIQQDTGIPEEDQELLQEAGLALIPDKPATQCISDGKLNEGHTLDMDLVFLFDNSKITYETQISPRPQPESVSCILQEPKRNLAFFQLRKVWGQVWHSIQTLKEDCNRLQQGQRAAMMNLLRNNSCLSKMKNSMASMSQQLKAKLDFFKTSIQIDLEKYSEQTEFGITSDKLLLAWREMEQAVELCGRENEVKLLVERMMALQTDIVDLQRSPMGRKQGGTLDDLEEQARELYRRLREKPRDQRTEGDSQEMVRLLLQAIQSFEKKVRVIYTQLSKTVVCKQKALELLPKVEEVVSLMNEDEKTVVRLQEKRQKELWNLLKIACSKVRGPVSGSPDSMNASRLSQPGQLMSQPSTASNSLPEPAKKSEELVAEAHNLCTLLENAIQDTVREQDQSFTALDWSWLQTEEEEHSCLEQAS

With `CC1(C)CCC(CN2CCN(c3ccc(C(=O)NS(=O)(=O)c4ccc(NCC5CCOCC5)c([N+](=O)[O-])c4)c(Oc4cnc5[nH]ccc5c4)c3)CC2)=C(c2ccc(Cl)cc2)C1` the IC50 was over 10 µM (HD-MB03; cell growth or viability; 7 days).
With `OCc1ccc(-c2nn(Cc3ccccc3)c3c2CCCC3)o1` the IC50 was 1.51 µM (RBE; cell growth or viability, ATP luminescence).
`Cc1cccc2nc(-c3ccc(-c4cccc(CNCCCN5CCCC5=O)c4)cc3)[nH]c12` gave an IC50 of over 10 µM (HEK293; cell growth or viability).
`COc1cc(Nc2nccc(-c3cnn4nc(OC)ccc34)n2)cc(C(F)(F)F)c1` gave an IC50 of 0.86 µM (OCI-AML-5; cell growth or viability, ATP luminescence).
`Cc1[nH]c(C)c(-c2ccc(OCCCc3ccccn3)cc2)c(=O)c1Br` gave an IC50 of over 10 µM (HEK293; cell growth or viability).
With `OCc1ccc(-c2nn(Cc3cccc(F)c3)c3ccccc23)o1` the IC50 was 1.2 µM (RBE; cell growth or viability, ATP luminescence).
`CC(Cl)=CCc1c(C)[nH]c2c(ccc3ccccc32)c1=O` gave an IC50 of over 10 µM (HEK293; cell growth or viability).
For `COc1cc2c3c(n(CCCN4CCOCC4)c(=O)c2cc1OC)-c1nc2c(cc1C3=O)OCO2`, the IC50 was over 2 µM (Kasumi 1; cell growth or viability, MTS; 72 h).
For `Cc1c(Cc2ccccc2)c(=O)oc2c(C)c(OCC(=O)NN=Cc3ccc(Cl)cc3)ccc12`, the IC50 was 120 µM (PC-3; cell growth or viability, MTT).
`CNc1ncc2c(/C=C/C(=O)N3CCC(OC)CC3)nn(Cc3cccc(C(F)(F)F)c3)c2n1` gave a remaining activity of 101% (Inhibitor of nuclear factor kappa-B kinase subunit beta (IKBKB, Homo sapiens, UniProt O14920); enzyme activity, inhibitor, radiometric; 1 µM).
`Cn1cc(-c2cnn3c(N)c(Br)c([C@@H]4CCCNC4)nc23)cn1` gave an IC50 of 0.274 µM (MB002; cell growth or viability; 7 days).
`OCc1ccc(-c2nn(Cc3ccccc3F)c3ccccc23)o1` has an IC50 of 1.2 µM (RBE; cell growth or viability, ATP luminescence).
With `COc1ccc(COc2cc3oc(=O)c4cc(C(C)O)ccc4c3cc2OC)cc1` (stereo not drawn) the IC50 was over 10 µM (HD-MB03; cell growth or viability; 7 days).
`O=C1C(=Nc2ccc(Cl)cc2)c2ccccc2N1Cc1ccc([N+](=O)[O-])cc1` has an IC50 of 19.6 µM (L02; cell growth or viability, MTT; 48 h).
`CCC(=O)N1CCN(c2ccc(-n3c(=O)ccc4cnc5ccc(-c6cnc7ccccc7c6)cc5c43)cc2C(F)(F)F)CC1` gave an IC50 of 0.0442 µM (HD-MB03; cell growth or viability; 7 days).
For `Cc1nc(Nc2ncc(C(=O)Nc3c(C)cccc3Cl)s2)cc(N2CC[C@H](O)C2)n1`, the IC50 was over 10 µM (RS4-11; cell growth or viability, ATP luminescence; 72 h).
The IC50 of `Cc1cccc(N=C2C(=O)N(Cc3ccccc3)c3ccccc32)c1` is reported as 31.3 µM (L02; cell growth or viability, MTT; 48 h).
For `Cc1[nH]c(C)c(-c2ccc(CCc3cccc(C(F)(F)F)c3)nc2)c(=O)c1Cl`, the IC50 was over 10 µM (HEK293; cell growth or viability).
With `CC[C@@H]1C(=O)N(C)c2cnc(Nc3ccc(C(=O)N[C@H]4CC[C@H](N5CCN(CC6CC6)CC5)CC4)cc3OC)nc2N1C(C)C` the IC50 was 0.00663 µM (MB002; cell growth or viability; 7 days).
The IC50 of `COC(=O)CN=c1scc(-c2ccccc2)n1-c1ccc(Cl)cc1` is reported as 28.9 µM (Panc 02.03; cell growth or viability, MTT; 72 h).
For `OCc1ccc(-c2nn(Cc3cncnc3)c3ccccc23)o1`, the IC50 was 1.05 µM (RBE; cell growth or viability, ATP luminescence).
For `CC1(C)CCC(CN2CCN(c3ccc(C(=O)NS(=O)(=O)c4ccc(NCC5CCOCC5)c([N+](=O)[O-])c4)c(Oc4cnc5[nH]ccc5c4)c3)CC2)=C(c2ccc(Cl)cc2)C1`, the IC50 was 0.054 µM (MINO; cell growth or viability, ATP luminescence; 48 h).
The IC50 of `CC[C@@]1(O)C(=O)OCc2c1cc1n(c2=O)Cc2cc3c(CN(C)C)c(O)ccc3nc2-1` is reported as 0.167 µM (MB002; cell growth or viability; 7 days).
The IC50 of `C=C(F)C(=O)N1CCN(c2nc(OC[C@@H]3CCCN3C)nc3c2CCN(c2cccc4cccc(Cl)c24)C3)C[C@@H]1CC#N` is reported as 5.25 µM (NCI-H1573; cell growth or viability, ATP luminescence).
With `c1ccc2c(c1)ncn2Cn1cncn1` the IC50 was 32.1 µM (SH-SY5Y; cell growth or viability, MTT; 24 h).
With `OCc1ccc(-c2nn(Cc3ccncc3)c3ccccc23)o1` the IC50 was 0.166 µM (RBE; cell growth or viability, ATP luminescence).
`CCCOc1ccc2c(C)c(CC)c(=O)oc2c1C` has an IC50 of 585 µM (PC-3; cell growth or viability, MTT).
With `CCCCN(C)CC#Cc1ccc2[nH]c(C)c(Cl)c(=O)c2c1` the IC50 was over 10 µM (HEK293; cell growth or viability).
`OCc1ccc(-c2cn(Cc3ccccc3)c3ccccc23)o1` has an IC50 of 7.24 µM (RBE; cell growth or viability, ATP luminescence).
For `CCc1c(C)c2ccc(OCC(=O)NNC(=S)Nc3ccccc3)c(C)c2oc1=O`, the IC50 was 70.1 µM (PC-3; cell growth or viability, MTT).
`OCc1ccc(-c2nn(CC3CCCCC3)c3ccccc23)o1` gave an IC50 of 16.2 µM (RBE; cell growth or viability, ATP luminescence).
With `COc1cc2c3c(n(CCCn4ccnc4)c(=O)c2cc1OC)-c1nc2c(cc1C3=O)OCO2` the IC50 was 0.481 µM (RPMI-8226; cell growth or viability, MTS; 72 h).
`Cc1cc(=O)c(-c2ccc(OCCSc3ccc(C(F)(F)F)cn3)cc2)c(C)[nH]1` has an IC50 of over 10 µM (HEK293; cell growth or viability).
For `COc1cc2c3c(n(CCCNCCO)c(=O)c2cc1OC)-c1nc2c(cc1C3=O)OCO2`, the IC50 was 0.197 µM (TC-71; cell growth or viability, MTS; 72 h).
`CCOc1ccc2c(C)c(CC)c(=O)oc2c1C` has an IC50 of 512 µM (PC-3; cell growth or viability, MTT).
`CC(C)C[C@H](NC(=O)[C@H](Cc1ccccc1)NC(=O)c1cnccn1)B(O)O` has an IC50 of 0.038 µM (BT-20; cell growth or viability, ATP luminescence).
With `CS(=O)(=O)c1ccc(C(=O)Nc2ccc(Cl)c(-c3ccccn3)c2)c(Cl)c1` the IC50 was over 10 µM (MB002; cell growth or viability; 7 days).
For `CCCCN1CC[C@@H](CCC(O)c2cc(OCCC)nc3ccc(OC)cc23)[C@@H](CC)C1` (stereo partly drawn), the IC50 was over 10 µM (HEK293; cell growth or viability).
The IC50 of `COc1cnccc1Cn1nc(-c2ccc(CO)o2)c2ccccc21` is reported as 0.209 µM (RBE; cell growth or viability, ATP luminescence).
For `COc1ccc(C#Cc2ccc(-c3c(C)[nH]c(C)c(Cl)c3=O)cc2)cc1`, the IC50 was over 10 µM (HEK293; cell growth or viability).
For `COc1cc2c3c(n(CCCNC(C)C)c(=O)c2cc1OC)-c1nc2c(cc1C3=O)OCO2`, the IC50 was 0.234 µM (RPMI-8226; cell growth or viability, MTS; 72 h).
The IC50 of `COc1cccc2c1C(=O)c1c(O)c3c(c(O)c1C2=O)C[C@@](O)(C(=O)CO)C[C@@H]3O[C@H]1C[C@H](N)[C@H](O)[C@H](C)O1` is reported as 0.66 µM (HeLa; cell growth or viability, CCK-8; 72 h).
With `COC(=O)CN=c1scc(-c2ccccc2)n1-c1ccc(C)cc1` the IC50 was 25.7 µM (Panc 02.03; cell growth or viability, MTT; 72 h).
With `CO[C@H]1C(=O)[C@]2(C)[C@@H](OC)C[C@H]3OC[C@@]3(OC(C)=O)[C@H]2[C@H](OC(=O)c2ccccc2)[C@]2(O)C[C@H](OC(=O)[C@H](O)[C@@H](NC(=O)OC(C)(C)C)c3ccccc3)C(C)=C1C2(C)C` the IC50 was 0.00413 µM (MB002; cell growth or viability; 7 days).
The IC50 of `CCc1c(C)c2ccc(OCC=Cc3ccccc3)c(C)c2oc1=O` is reported as 255 µM (PC-3; cell growth or viability, MTT).

Excerpt of the above:
With `CC[C@@H]1C(=O)N(C)c2cnc(Nc3ccc(C(=O)N[C@H]4CC[C@H](N5CCN(CC6CC6)CC5)CC4)cc3OC)nc2N1C(C)C` the IC50 was 0.00663 µM (MB002; cell growth or viability; 7 days).
The IC50 of `COC(=O)CN=c1scc(-c2ccccc2)n1-c1ccc(Cl)cc1` is reported as 28.9 µM (Panc 02.03; cell growth or viability, MTT; 72 h).
For `OCc1ccc(-c2nn(Cc3cncnc3)c3ccccc23)o1`, the IC50 was 1.05 µM (RBE; cell growth or viability, ATP luminescence).
For `CC1(C)CCC(CN2CCN(c3ccc(C(=O)NS(=O)(=O)c4ccc(NCC5CCOCC5)c([N+](=O)[O-])c4)c(Oc4cnc5[nH]ccc5c4)c3)CC2)=C(c2ccc(Cl)cc2)C1`, the IC50 was 0.054 µM (MINO; cell growth or viability, ATP luminescence; 48 h).
The IC50 of `CC[C@@]1(O)C(=O)OCc2c1cc1n(c2=O)Cc2cc3c(CN(C)C)c(O)ccc3nc2-1` is reported as 0.167 µM (MB002; cell growth or viability; 7 days).
The IC50 of `C=C(F)C(=O)N1CCN(c2nc(OC[C@@H]3CCCN3C)nc3c2CCN(c2cccc4cccc(Cl)c24)C3)C[C@@H]1CC#N` is reported as 5.25 µM (NCI-H1573; cell growth or viability, ATP luminescence).
